Measured values from different studies.
Numbered parts are unrelated; each lists some results of a single study. Positions count from the first letter of the parent shown.

Set 1
Target: ABI1, truncated, D143A, DHFR fusion (Arabidopsis thaliana)
Method: DHFR PCA, deep sequencing
Sample: yeast
Setting: methotrexate growth selection, single substitutions
Added: (+)-ABA 0.11 µM
Baseline: wild-type fitted maximum
Reading: higher = stronger binding
Parent: PYL1, truncated, DHFR fusion (Arabidopsis thaliana); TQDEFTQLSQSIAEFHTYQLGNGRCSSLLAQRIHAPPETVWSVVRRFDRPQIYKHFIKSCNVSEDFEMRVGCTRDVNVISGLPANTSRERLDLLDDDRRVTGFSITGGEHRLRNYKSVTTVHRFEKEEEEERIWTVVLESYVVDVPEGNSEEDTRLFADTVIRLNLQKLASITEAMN; partner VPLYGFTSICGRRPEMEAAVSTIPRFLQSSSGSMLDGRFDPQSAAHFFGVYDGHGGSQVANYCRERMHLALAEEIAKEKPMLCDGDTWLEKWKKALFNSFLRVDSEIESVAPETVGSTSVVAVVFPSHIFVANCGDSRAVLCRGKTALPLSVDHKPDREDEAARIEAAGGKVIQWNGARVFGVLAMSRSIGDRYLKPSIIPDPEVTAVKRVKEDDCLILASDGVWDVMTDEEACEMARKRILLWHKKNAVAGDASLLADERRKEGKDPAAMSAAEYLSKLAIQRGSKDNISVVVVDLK
| Variant | relative binding score [%] |
| --- | --- |
| T1I | 38.7 |
| Q2F | 70.3 |
| K168A | 4.9 |
| R88K | 43.8 |
| A175K | 38 |
| R99K | 43.4 |
| R74F | -4.75 |
| Q167F | -3.27 |
| L169Q | 2.71 |
| E129F | 14 |
| E38M | 1.56 |

Set 2
Target: RING finger protein unkempt homolog, zinc fingers 1-6, GST-SBP tag (UNK, Homo sapiens, UniProt Q9C0B0, residues 30-357)
Method: RNA Bind-n-Seq
Molecule type: RNA
Sample: in vitro
Concentration: not given
Setting: RNA with constant flanks, ends assumed
Baseline: input RNA pool
Reading: higher = stronger binding
Constant ends, left off below: GGGAGUUCUACAGUCCGACGAUC … CAACAGAGGAUUGAGCAUCA
Target sequence (chain): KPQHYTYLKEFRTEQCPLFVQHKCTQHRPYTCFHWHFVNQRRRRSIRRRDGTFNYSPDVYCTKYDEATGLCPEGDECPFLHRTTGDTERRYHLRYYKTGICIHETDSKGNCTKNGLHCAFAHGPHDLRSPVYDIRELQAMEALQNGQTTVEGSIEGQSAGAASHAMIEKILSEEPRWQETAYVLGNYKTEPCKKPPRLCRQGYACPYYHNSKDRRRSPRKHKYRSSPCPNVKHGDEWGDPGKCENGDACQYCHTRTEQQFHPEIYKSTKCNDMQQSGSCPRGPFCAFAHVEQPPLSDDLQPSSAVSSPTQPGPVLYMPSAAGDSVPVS
| Strand | bound/input enrichment |
| --- | --- |
| UAUUUCAGUGUCAUGGACUUCCUCAAAAUGAAGUGCUAUUUUCUUAUUUUUAAUCAAAUAACCCGACAUAUAUCAGAAACUUUAAAAUGUAAAAGUUGUACACUUUCAACAUUUUAUUAC | 0.174 ratio |
| AAUCACUUUGAAGUCCUCCCUCCCGAGCUGGGAGACUGCCGGGCUCUGAAGCGAGCCGGGCCCGUUGUGGAAGAUGCUCUGUUUGAGACUCUGCCCUCAGAUGUCCGGGAGCAGAUGAAA | 0.154 ratio |
| ACAGACAUUCGCUGCCCCUUUGAAAAACGAAGAGAUGCAGCAUGUGUGUUUUGGGACAAUGCCGUAUACAUUUUGGGAGGUUCUCAGCUUUUCCCCAUAAAGCGAAUGGAUUGCUACAAU | 0.12 ratio |
| CCAGACAGCCCAUCCCCAGACCGAUUUGGGAUGUUGCCCCUGGAUGAGCCUGCUAUUCUUGUCCGUGAAUUCCUAGAUCGUUUUCAAAGCCUUUGUCACUUGGACCUCCAGCUUCCUUCC | 0.292 ratio |
| UCAGAUAAUUCAAGAUUUCCACUUGCAGUUGUAGAAGAACCAAUUACAGUGGAAGUGGCUUUCCGAAACCCUUUGAAAGUUCUACUUUUGUUGACUGAUUUGUCAUUGCUUUGGAAGUUU | 0.161 ratio |
| UGGCGGUUCAGCAACAUGAAGCAGUGGAAUGUCAACUGGGAGAUCAAGAUGGUCACUGCCGAGUUUGCAGAUGAGGUCCGGUUGUCCUUCAUCUGUACCGAAGUAGACUGCAAGGUGGUC | 0.12 ratio |
| AAUAUCAUUCCUAGUACCUUUUUGCCUAAACAAGAAGGACCUUUUUUCUUGGACUUUAACCGUAUUAUCCCCAUCAAGAUCACACAACUUCAGUGAUGGAGAAAUCUCAAGUUACUGGCU | 0.328 ratio |
| CACCGCAACCUUUCCUUUUUCCCCCAGUGAUUCUGAAAAACCCCUCUUCCCUUCAGCUUGCUCCGAUGUUCCAAAUUUAGUAAGCUUAAGGCGGCCUACAGAAGAAAAAGAAAAAAAAGG | 0.993 ratio |
| GUAAUCUUCCAAAGGAAGCUCUUUCAGGCCUUGAGGAAGCAUCCUGCUUAUCCCAAAGUAACCGAAGAGUUUGUUAAUGGCCUGGAGUCCUACACUGAGGACAGUGAGAGUCUCAGGAAC | 0.1 ratio |
| UUCUGGUUCAGAUCUGUGCCGUUGGCUGCCACAAGUAUGCUGAUUACUCAAGGAUUAAUCCGUAAAGGAAUCCUGUCAAGUCAUCCAAAAUAUGGUUCAAUUCCUAAACUUCUAUUCGCU | 0.147 ratio |
| GAGGAGGACAAAGAGCCCCUCAUCGAGCUCUUCGUCAAGGCUGGCAGUGAUGGUGAAAGCACCGGAAACUGCCCCUUUUCCCAGAGGCUCUUCAUGAUUCUUUGGCUCAAAGGAGUUGUA | 0.0586 ratio |

Set 3
Target: CCNB1, cyclin fold, Cln2 fusion (human)
Method: yeast growth competition, sequencing
Sample: yeast
Setting: weak parent motif
Baseline: not given
Reading: higher = stronger binding
Parent: CDKN1A docking peptide (human); SKACRRLFGPVDS
| Variant | normalised enrichment score |
| --- | --- |
| L7Y | 0.378 |
| G9S | 0.237 |
| V11M | 0.288 |
| F8D | 0.227 |
| D12N | 0.3 |
| R5K F8L | 0.191 |
| L7A | 0.39 |
| K2M | 0.824 |
| F8G | 0.28 |
| G9V | 0.426 |
| D12W | 0.395 |
| F8R | 0.253 |
| G9L | 0.191 |
| D12M | 0.0166 |
| V11I | 0.277 |
| P10R | 0.442 |
| A3C | 0.95 |
| P10C | 0.803 |
| L7I | 0.326 |

Set 4
Target: CRIPT, C-terminal peptide
Method: DHFR complementation, deep sequencing
Sample: yeast
Setting: single substitutions, model-inferred values
Baseline: wild type
Reading: higher = weaker binding
Parent: ERBIN, PDZ domain 1 (human); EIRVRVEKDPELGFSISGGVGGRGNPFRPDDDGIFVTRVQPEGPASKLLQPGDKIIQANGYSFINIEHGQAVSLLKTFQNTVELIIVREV; partner TKNYKQTSV
| Variant | binding free energy change [kcal/mol] |
| --- | --- |
| D31T | 0.726 |
| R28F | 0.141 |
| R28E | -0.00626 |
| G24P | 1.48 |
| P51N | 0.416 |
| G60M | 0.178 |
| V6I | 0.0834 |
| L48T | 0.111 |
| G33F | 1.2 |
| T37I | 0.583 |
| D9G | -0.323 |
| Q79F | 0.0543 |
| F63M | -0.0893 |
| V36A | 0.521 |
| L48N | 0.248 |
| Q50L | 0.00336 |
| P41C | 0.323 |
| K47A | 0.0238 |
| A71E | 0.626 |
| S17N | 1.58 |

Set 5
Target: FOXO3, forkhead domain (mouse, UniProt Q9WVH4, residues 31-263)
Sequence of UniProt Q9WVH4 (31-263, looked up): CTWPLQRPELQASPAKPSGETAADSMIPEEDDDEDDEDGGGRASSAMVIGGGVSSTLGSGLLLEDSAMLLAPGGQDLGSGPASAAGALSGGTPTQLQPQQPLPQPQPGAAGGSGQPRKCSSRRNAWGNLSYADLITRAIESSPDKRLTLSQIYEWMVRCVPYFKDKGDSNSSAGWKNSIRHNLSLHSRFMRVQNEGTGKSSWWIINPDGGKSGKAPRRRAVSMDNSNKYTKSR
Method: protein-binding microarray
Molecule type: hairpin DNA
Sample: in vitro
Concentration: not given
Setting: whole hairpin DNA, median over replicate spots
Baseline: not given
Reading: higher = stronger binding
| Strand | median fluorescence [a.u.] |
| --- | --- |
| GAGGCCATGTAACCAGCGCCTCCTGGCGCTGGTTACATGGCCTCACACTC | 4310 |
| GAGGCCATCGAAACAACGCCTCCTGGCGTTGTTTCGATGGCCTCACACTC | 4420 |
| GAGGCCATCGAAACAACGCCTCCTGGCGTTGTTTCGATGGCCTCACACTC (5mC at 9) | 4170 |
| GAGGCCCGGTAACCAACGCCTCCTGGCGTTGGTTACCGGGCCTCACACTC (5mC at 7 37) | 4420 |
| GAGGCCATGCAAACAGCGCCTCCTGGCGCTGTTTGCATGGCCTCACACTC | 4890 |
| GAGGCCATGTAACCACGGCCTCCTGGCCGTGGTTACATGGCCTCACACTC (5mC at 16) | 3880 |
| GAGGCCATGCAAACCACGCCTCCTGGCGTGGTTTGCATGGCCTCACACTC | 4560 |
| GAGGCCATGTAAACGACGCCTCCTGGCGTCGTTTACATGGCCTCACACTC (5mC at 30) | 4760 |
| GAGGCCATGCGACCAACGCCTCCTGGCGTTGGTCGCATGGCCTCACACTC (5mC at 10) | 4740 |
| GAGGCCATGTAACCCGCGCCTCCTGGCGCGGGTTACATGGCCTCACACTC (5mC at 29) | 4550 |
| GAGGCCATGTAAACCGCGCCTCCTGGCGCGGTTTACATGGCCTCACACTC (5mC at 15) | 4330 |
| GAGGCCATGCAAACGACGCCTCCTGGCGTCGTTTGCATGGCCTCACACTC (5mC at 30) | 4750 |
| GAGGCCATGTAACCAAGGCCTCCTGGCCTTGGTTACATGGCCTCACACTC | 3620 |
| GAGGCCAAGTAACCAACGCCTCCTGGCGTTGGTTACTTGGCCTCACACTC | 4100 |
| GAGGCCATACAAACAACGCCTCCTGGCGTTGTTTGTATGGCCTCACACTC | 4720 |
| GAGGCCATGTAAACAAGGCCTCCTGGCCTTGTTTACATGGCCTCACACTC | 4570 |
| GAGGCCATGCAATCAACGCCTCCTGGCGTTGATTGCATGGCCTCACACTC | 4410 |
| GAGGCCATGTAAACACGGCCTCCTGGCCGTGTTTACATGGCCTCACACTC (5mC at 28) | 4790 |
| GAGGCCATGTAACCCACGCCTCCTGGCGTGGGTTACATGGCCTCACACTC | 4230 |
| GAGGCCATGCAACGAACGCCTCCTGGCGTTCGTTGCATGGCCTCACACTC | 4610 |
| GAGGCCATATAAACAACGCCTCCTGGCGTTGTTTATATGGCCTCACACTC | 4150 |
| GAGGCCATGTGACCAACGCCTCCTGGCGTTGGTCACATGGCCTCACACTC (5mC at 34) | 4280 |
| GAGGCCCGGCAAACAACGCCTCCTGGCGTTGTTTGCCGGGCCTCACACTC | 5680 |
| GAGGCCATGCGACCAACGCCTCCTGGCGTTGGTCGCATGGCCTCACACTC | 4940 |
| GAGGCCATGTTACCAACGCCTCCTGGCGTTGGTAACATGGCCTCACACTC | 4090 |

Set 6
Target: FOSB, bZIP domain (human)
Method: DHFR protein complementation
Sample: yeast
Setting: single substitutions, most at no-binding floor
Baseline: wild-type JUN-FOS pair
Reading: higher = stronger binding
Parent: JUN, bZIP domain (human); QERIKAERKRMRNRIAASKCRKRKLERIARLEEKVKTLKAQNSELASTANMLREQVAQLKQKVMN
| Variant | binding fitness [natural log] |
| --- | --- |
| K36P | -1.36 |
| L38P | -1.33 |
| S43P | -1.22 |
| Q41P | -1.53 |
| L38H | -1.44 |

Some of these lines once more (set 1):
| Variant | relative binding score [%] |
| --- | --- |
| T1I | 38.7 |
| Q2F | 70.3 |
| K168A | 4.9 |
| R88K | 43.8 |
| A175K | 38 |
| R99K | 43.4 |
| R74F | -4.75 |
| Q167F | -3.27 |
| L169Q | 2.71 |
| E129F | 14 |
| E38M | 1.56 |
